Experimental data from different studies.
Every numbered part comes from another study and shows a few of its results, in no order. Positions count from the first letter of the parent shown.

Study 1 — technique: protein binding microarray; form: double-stranded DNA, one strand shown; matrix: in vitro; tested at: not given; relative to: not given; direction: higher = stronger binding; endpoint: E-score
Target: Histone acetyltransferase KAT6A, both winged helices, GST fusion (KAT6A, Homo sapiens, UniProt Q92794, residues 1-181)
Notes: 8-mer, flanks averaged, mean of 2 arrays, mostly near background
Target sequence (chain): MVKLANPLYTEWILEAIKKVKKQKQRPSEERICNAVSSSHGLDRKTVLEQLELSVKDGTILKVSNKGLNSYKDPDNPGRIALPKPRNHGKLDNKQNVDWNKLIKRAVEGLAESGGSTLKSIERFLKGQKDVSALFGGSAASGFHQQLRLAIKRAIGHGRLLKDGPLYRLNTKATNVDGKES
TATTTGAA: -0.0176
CCCACCGA: -0.214
AGATCCAA: -0.216
AGGTTGGG: -0.131
AGTACTCG: -0.0158
ACGACTTG: -0.129
GCCCAGGA: -0.186
CCGGCCAC: 0.143
AGCGACGG: 0.312
GCTACCGA: 0.113
TATACTCA: -0.102
AAAGTGGC: -0.076
ACGGAGTC: 0.105
CCTAAGCG: 0.0935
CATACAAC: -0.0894
GGCACCTA: 0.0075
AAAGTCCC: -0.0572
GGTCCTCA: -0.00416
ACGCGCGG: 0.388
CCGGTCCC: 0.227
AAGCTGGC: -0.0513
ACACGTAG: -0.066
TTAACGAA: 0.0714
ACTCGAGC: -0.174

Study 2 — technique: protein-binding microarray; form: double-stranded DNA, one strand shown; matrix: in vitro; tested at: not given; direction: higher = stronger binding; endpoint: E-score
Target: Protein max, full length (MAX, Homo sapiens, UniProt P61244-2, residues 1-151)
Notes: k-mer, scored over probes, only values ≥0.25
ACGCGACC: 0.309
CGTGAATC: 0.266
TACACGCA: 0.286
CCGTGGCG: 0.256
CCAGGTGC: 0.306
CGTGGTAG: 0.34
CATGCATC: 0.292
ACACACGT: 0.421
GCGAGCAC: 0.305
ACGAGGCG: 0.34
CCGTGACA: 0.279
CACACGCC: 0.357
CAGCGTGC: 0.453
CACAAGGA: 0.286
CGCCCCGC: 0.279
CGGCACGA: 0.331
TGACACCA: 0.267
AACACACG: 0.355

Study 3 — technique: DHFR PCA, deep sequencing; matrix: yeast; together with: (+)-ABA 4.8 µM; relative to: wild-type fitted maximum; direction: higher = stronger binding; endpoint: relative binding score
Target: ABI1, truncated, D143A, DHFR fusion (Arabidopsis thaliana)
Notes: methotrexate growth selection, single substitutions
Starting sequence: PYL1, truncated, DHFR fusion (Arabidopsis thaliana); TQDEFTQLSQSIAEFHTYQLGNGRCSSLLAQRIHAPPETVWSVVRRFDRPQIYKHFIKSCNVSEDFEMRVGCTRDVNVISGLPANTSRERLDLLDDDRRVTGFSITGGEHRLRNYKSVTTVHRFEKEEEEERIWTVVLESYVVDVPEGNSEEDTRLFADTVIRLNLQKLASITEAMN
D153F: 2.55%
L28C: 42.2%
N114P: 5.94%
M68D: 9.27%
F157P: -0.527%
D48R: -8.48%
V136W: 40%
K58Q: 64.5%
F124H: 26.1%
E139M: 28.2%
R111I: -5.36%
D65N: 72.1%
D75S: 71.1%
G107K: 0.165%
V137S: -4.24%
S150T: 87.2%
N165C: -8.18%
I162P: 7.93%
H55G: 79%
C72H: 37.7%
A175G: 83.2%
E174Q: 61.6%
T17M: 32.5%
L169A: -1.87%
V62F: 30%

Study 4 — target: CCND1, cyclin fold, Cln2 fusion (human); technique: yeast growth competition, sequencing; matrix: yeast; notes: weak parent motif; relative to: not given; direction: higher = stronger binding; endpoint: normalised enrichment score
Starting sequence: BRCA2 docking peptide (human); PSIKRNLLNEFDR; partner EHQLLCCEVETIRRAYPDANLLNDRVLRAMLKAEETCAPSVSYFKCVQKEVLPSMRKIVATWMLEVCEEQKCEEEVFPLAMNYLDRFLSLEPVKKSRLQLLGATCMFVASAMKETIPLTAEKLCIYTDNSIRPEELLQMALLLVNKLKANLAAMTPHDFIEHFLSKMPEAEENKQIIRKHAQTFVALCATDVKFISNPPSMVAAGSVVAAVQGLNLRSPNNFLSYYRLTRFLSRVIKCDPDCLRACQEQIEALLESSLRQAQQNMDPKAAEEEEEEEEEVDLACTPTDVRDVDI
N6Y: 0.114
K4G: 0.143
N6S: 0.193
R13M: 0.549
L7Q: 0.569
D12G: 0.308
I3C: 1.2
N9E: 0.641
S2V: 0.111
D12Q: 0.494
R5G: -0.115
I3T: 0.467
R13C: 0.624
D12S: 0.441
D12C: 0.307
N6E: 0.416
F11M: -0.105

Study 5 — technique: RNA Bind-n-Seq; form: RNA; matrix: in vitro; tested at: 20 nM; notes: 6-mer, flanks averaged, single round; together with: 150 mM KCl; relative to: input library; direction: higher = stronger binding; endpoint: 6-mer enrichment (R)
Target: TAR DNA-binding protein 43, full length, His tag (TARDBP, Homo sapiens, UniProt Q13148, residues 1-414)
CCGGUC: 0.761
GAUACU: 0.619
GCACUG: 0.938
ACUGUU: 0.627
CUGGGA: 1.85
UACCAC: 0.613
CUCGGU: 0.721
AUGAGC: 0.869
CGCCUC: 0.627
AAUAGA: 0.698
ACCGGC: 0.874
AAAGGU: 0.789
GAAUCC: 0.644
UUCUGA: 0.575
ACCAAG: 0.77
CUUUGG: 0.815
CUCCGG: 0.852
UUAGGU: 0.743
UACGCG: 0.964
GUUGGG: 3.39
AUACAG: 0.68
AGCAUC: 0.615
CCCUCU: 0.619
AGCAAU: 0.662
GCUACC: 0.675

Study 6 — technique: protein-binding microarray; form: double-stranded DNA, one strand shown; matrix: in vitro; tested at: 940 nM top; notes: 60-bp whole probe; together with: salmon DNA 0.4 mg/ml; relative to: random background probes; direction: higher = stronger binding; endpoint: fitted relative affinity; all sequences stand within: GCCTAGCAC … GTCTTGATTCGCTTGACGCTGCTG
Target: Interferon regulatory factor 5, full length, phosphomimetic (IRF5, Homo sapiens, UniProt Q13568-2, residues 1-514, S451D/S453D/S456D/S462D)
TCATTTTTTTTTTTTCTACTGTGCTAG: 1.4 z-score
GACGGTTTCGGTCTCGGTACGTGCTAG: 13.6 z-score
GACGGTATCCGTTTCGGGACGTGCTAG: 1.41 z-score
TTAGGTCTCGGCTTCGGTTAGTGCTAG: 2.44 z-score
GACGGTCTCGGACTGGAGACGTGCTAG: 0.583 z-score
CATTTTTTTTTTCTACTTCTGTGCTAG: 1.94 z-score
TTAGATCTCCTTATCCTTTAGTGCTAG: 0.558 z-score
TCAAGTCTCTGTTCTTTACTGTGCTAG: 1.58 z-score
TTAGGCATCGGGTTTCGGTTAGTGCTA: 5.54 z-score
TCAGGACTGCTTATCCTTTAGTGCTAG: 0.0776 z-score
GACGGTATCGGTTTTCGGGACGTGCTA: 8.21 z-score
GACGACCTGAGTTTCGAGACGTGCTAG: 3.47 z-score
TCACCTTCACCTCTCTGACTGTGCTAG: 1.07 z-score
GACGAACTGGGGTATCGAGCCGTGCTA: 0.319 z-score
GACGATCGCAGACTGGAGACGTGCTAG: -0.974 z-score
TTAGGTTTAGGGACTGGGTTAGTGCTA: 0.24 z-score
TCTGTTTTTGCTTTCCTTCTGTGCTAG: 1.93 z-score
